{"data": "Experimental data collected from several papers", "target": "Myosin light chain kinase 2, skeletal/cardiac muscle (MYLK2, Homo sapiens, UniProt Q9H1R3)"}
{"SMILES": "Nc1ncc2c(n1)-c1c([nH]c3ccc(C4=CCOCC4)cc13)CCC2", "assay": "binding, competition with immobilised ligand", "conditions": "1 µM", "measurement": "remaining binding", "result": "100%"}
{"SMILES": "CCn1cc(C(=O)O)c(=O)c2c(N)c(F)c(NC3CCCCC3)cc21", "assay": "kinase activity", "conditions": "0.1 µM, added: ATP at Km", "measurement": "inhibition", "result": "1.4%"}
{"SMILES": "C=CC(=O)Nc1cccc(-c2cnc3[nH]cc(C(=O)NC(C)(C)C)c3n2)c1", "assay": "enzyme activity, inhibitor", "conditions": "0.1 µM", "measurement": "inhibition", "result": "4%"}
{"SMILES": "CN1CCN(Cc2ccc(-c3ccc(CO[C@H]4CCC[C@@H]4NC(=O)c4cc(-c5cnn(C)c5)cnc4N)cc3)cc2)CC1", "assay": "enzyme activity, inhibitor", "conditions": "0.1 µM", "measurement": "inhibition", "result": "-4%"}
{"SMILES": "Nc1ncc(-c2cc(-c3cnn(CC(F)(F)F)c3)ncc2F)nc1C(=O)NC1CNCC(F)C1 (stereo not drawn)", "assay": "enzyme activity", "conditions": "1 µM", "how to read": "baseline: DMSO control", "measurement": "remaining activity", "result": "97.3%"}
{"SMILES": "NC(=O)[C@@H](O)C[C@H]1CCc2sc3ncnc(O[C@H]4CC[C@H](N5CCOCC5)CC4)c3c21", "assay": "enzyme activity, inhibitor", "conditions": "10 µM", "measurement": "inhibition", "result": "-1%"}
{"SMILES": "Cc1ccc(-c2c(/C=C(\\C#N)C(=O)NC(C)C)n(CCCO)c3ncnc(N)c23)cc1", "assay": "cell-free assay, competition with immobilised ligand", "conditions": "1 µM", "measurement": "remaining binding", "result": "96%"}
{"SMILES": "COc1c(Cl)cccc1Nc1c(-c2ccncc2C#C[C@@]2(C)CCCN2C(=O)/C=C/CN(C)C)[nH]c2c1C(=O)NCC2", "assay": "binding, competition with immobilised ligand", "conditions": "3 µM", "measurement": "remaining binding", "result": "94%"}
{"SMILES": "COc1cc(Nc2nccc(-c3cnn4nc(OC)ccc34)n2)cc(C(F)(F)F)c1", "assay": "binding, competition with immobilised ligand", "conditions": "1 µM", "measurement": "remaining binding", "result": "100%"}
{"SMILES": "C=CC(=O)N1Cc2nc(-c3cc(-c4cc(Cl)cnc4Cl)c(F)cc3F)n(-c3ccncn3)c2C1", "assay": "cell-free assay, inhibitor", "conditions": "1 µM", "measurement": "inhibition", "result": "-0.7%"}
{"SMILES": "C=CC(=O)N1CCc2ccc(-n3c(=O)ccc4cnc5ccc(-c6cnn(C)c6)cc5c43)cc21", "assay": "KINOMEscan", "conditions": "1 µM", "how to read": "baseline: DMSO control", "measurement": "remaining binding", "result": "63%"}
{"SMILES": "CNC(=O)C[C@H](Cc1ccc(C#N)cc1)NC(=O)c1cc(-c2ccc(CN[C@H](C)c3ccc(C)cc3)o2)ccc1Cl", "assay": "enzyme activity, inhibitor", "conditions": "1 µM", "measurement": "activity vs control", "result": "108%"}
{"note": "Some of these lines once more:"}
{"SMILES": "CCn1cc(C(=O)O)c(=O)c2c(N)c(F)c(NC3CCCCC3)cc21", "assay": "kinase activity", "conditions": "0.1 µM, added: ATP at Km", "measurement": "inhibition", "result": "1.4%"}
